Published values gathered from unrelated publications.
Numbered parts are unrelated; each lists some results of a single study.

Block 1
Host: mouse
Matrix: microsomes or S9
Concentration: 2 µM
Time: 0.5 h
Measurement: remaining compound
SMILES = N#Cc1ccc(C(=O)OC2c3ccccc3-c3ccccc32)[nH]1; value = 0.206%
SMILES = O=c1[nH]c2ncccc2n1Cc1nnc2ccc(-c3cccc(F)c3)nn12; value = 99.8%
SMILES = C/C=C/Cn1c(C(=O)c2cc(C)cc(C)c2)c(CC)c(=O)[nH]c1=O; value = 43.5%
SMILES = COc1nc(OC)nc(Oc2ccc(NC(=O)c3c[nH]c4ccccc34)cc2)n1; value = 81.5%
SMILES = CC(C)CCn1c(N2CCNCC2)nc2c1c(O)nc(=O)n2C; value = 74.8%
SMILES = CC(C)C1CC(n2cc(C(=O)O)nn2)c2cc(Cl)ccc2O1 (centres unmarked); value = 71.2%
SMILES = Cc1ccc(-c2nc(C(=O)N=C(N)N)c(C)[nH]2)cc1; value = 24.3%
SMILES = COc1cc2cc(O)c(C)cc2cc1Cc1ccccc1; value = 13.4%
SMILES = Cc1ccc(CNS(=O)(=O)CC2=NC(=O)n3cccc3C2=O)cc1; value = 2.47%
SMILES = NCCN(C1CCOCC1)S(=O)(=O)c1ccc(F)cc1F; value = 72.4%
SMILES = CN(C(=O)c1ccc(C(=O)c2ccccc2)cc1)c1ccccc1; value = 0.0629%

Block 2
Organism: Sarcocystis neurona
Observed: parasite growth
Concentration: 10 µM
Notes: first screen
Reference: untreated
Measurement: log2 fold change
Compound = CC(C)(C)NCC(O)c1ccc(O)c(CO)c1.CC(C)(C)NCC(O)c1ccc(O)c(CO)c1.O=S(=O)(O)O (centres unmarked); value = 0.12
Compound = Cl.Nc1nc2ccc(OC(F)(F)F)cc2s1; value = 1.46
Compound = CC(=O)CCCCn1cnc2c1c(=O)n(C)c(=O)n2C; value = 0.36
Compound = CCCCC(=O)O[C@H]1CC[C@H]2[C@@H]3CCc4cc(O)ccc4[C@H]3CC[C@]12C; value = 0.12
Compound = O=C(O[C@@H]1Cc2c(O)cc(O)cc2O[C@@H]1c1cc(O)c(O)c(O)c1)c1cc(O)c(O)c(O)c1; value = 0.17
Compound = CCC1=C[C@@H]2CN(C1)Cc1c([nH]c3ccccc13)[C@@](C(=O)OC)(c1cc3c(cc1OC)N(C)[C@H]1[C@@](O)(C(=O)OC)[C@H](OC(C)=O)[C@]4(CC)C=CCN5CC[C@]31[C@@H]54)C2.O=C(O)C(O)C(O)C(=O)O.O=C(O)C(O)C(O)C(=O)O; value = -0.65
Compound = CC1(C)C[C@@H]1C(=O)N/C(=C\CCCCSC[C@H](N)C(=O)O)C(=O)[O-].[Na+]; value = 0.14
Compound = CC1=C(C/C=C(\C)CCC[C@H](C)CCC[C@H](C)CCCC(C)C)C(=O)c2ccccc2C1=O; value = 0.2
Compound = C[C@H]1C[C@H]2[C@@H]3CCC4=CC(=O)C=C[C@]4(C)[C@@]3(Cl)[C@@H](O)C[C@]2(C)[C@@]1(O)C(=O)CO; value = -0.11

Block 3
Compound: CC(C)CC(=O)N1CCc2nc(-c3ccc(Br)cc3)nc(N(C)Cc3ccccc3)c2C1
Method: competition with immobilised ligand
Concentration: 0.1 µM
Measurement: remaining binding
target = CLK3 (Homo sapiens, UniProt P49761); test = cell-free assay; value = 100%
target = TNK2 (Homo sapiens, UniProt Q07912); test = cell-free assay; value = 99%
target = FGFR2 (Homo sapiens, UniProt P21802); test = cell-free assay; value = 100%
target = PKN1 (Homo sapiens, UniProt Q16512); test = cell-free assay; value = 100%
target = GRK7 (Homo sapiens, UniProt Q8WTQ7); test = cell-free assay; value = 74%
target = Macrophage colony-stimulating factor 1 receptor, autoinhibited (CSF1R, Homo sapiens, UniProt P07333); test = cell-free assay; value = 100%
target = NEK5 (Homo sapiens, UniProt Q6P3R8); test = cell-free assay; value = 100%
target = FGFR3 (Homo sapiens, UniProt P22607, G697C); test = cell-free assay; value = 100%
target = CDK14 (Homo sapiens, UniProt O94921); test = cell-free assay; value = 100%
target = PIM1 (Homo sapiens, UniProt P11309); test = cell-free assay; value = 100%
target = DAPK1 (Homo sapiens, UniProt P53355); test = cell-free assay; value = 100%
target = MAPK12 (Homo sapiens, UniProt P53778); test = cell-free assay; value = 79%
target = HASPIN (Homo sapiens, UniProt Q8TF76); test = cell-free assay; value = 100%
target = Tyrosine-protein kinase ABL1, phosphorylated (ABL1, Homo sapiens, UniProt P00519, T315I); test = cell-free assay; value = 100%
target = TXK (Homo sapiens, UniProt P42681); test = binding; value = 100%
target = EPHB6 (Homo sapiens, UniProt O15197); test = cell-free assay; value = 91%
target = Aurora kinase B (AURKB, Homo sapiens, UniProt Q96GD4); test = cell-free assay; value = 92%
target = WNK4 (Homo sapiens, UniProt Q96J92); test = cell-free assay; value = 100%
target = Ribosomal protein S6 kinase alpha-4, C-terminal kinase domain (RPS6KA4, Homo sapiens, UniProt O75676); test = cell-free assay; value = 100%
target = SRC (Homo sapiens, UniProt P12931); test = cell-free assay; value = 100%
target = STK32B (Homo sapiens, UniProt Q9NY57); test = cell-free assay; value = 87%
target = KIT (Homo sapiens, UniProt P10721, D816H); test = cell-free assay; value = 71%
target = OXSR1 (Homo sapiens, UniProt O95747); test = cell-free assay; value = 100%
target = Tyrosine-protein kinase JAK2, JH1 (JAK2, Homo sapiens, UniProt O60674); test = cell-free assay; value = 100%
target = EIF2AK1 (Homo sapiens, UniProt Q9BQI3); test = cell-free assay; value = 100%

Block 4
Target: panel of 300 human kinases
Concentration: 0.5 µM
Direction: higher = more selective
Measurement: Gini score
SMILES = COc1cc2ncnc(Nc3ccc(OCc4ccccc4)cc3)c2cc1OC; value = 0.79
SMILES = CN(C)CCCn1cc(C2=C(c3c[nH]c4ccccc34)C(=O)NC2=O)c2ccccc21; value = 0.6
SMILES = c1ccc2c(-c3ccncc3)c[nH]c2c1; value = 0.71
SMILES = Cc1ccc(S(=O)(=O)/C=C/C#N)cc1; value = 0.69
SMILES = COc1cccc(-c2cc(=O)c3ccccc3o2)c1N; value = 0.59
SMILES = O=C(Nc1ccc(Cl)cc1)c1ccccc1NCc1ccncc1; value = 0.6
SMILES = CC(C)[C@H](CO)Nc1nc(Nc2cccc(Cl)c2)c2ncn(C(C)C)c2n1; value = 0.69
SMILES = COc1ccc(Cl)cc1NC(=O)Nc1cc(C)nc2ccccc12; value = 0.67
SMILES = Nc1[nH]nc2nnc(-c3c(-c4ccccc4)nn4ccccc34)cc12; value = 0.7
SMILES = CN(C)S(=O)(=O)c1ccc2c(c1)/C(=C/c1cc3c([nH]1)CCCC3)C(=O)N2; value = 0.65
SMILES = O=C1NC(=O)/C(=C/c2ccc3nccnc3c2)S1; value = 0.64
